Published values pooled from the literature.
Protocols differ between the studies behind these lines.

Structure (SMILES)	organism	test	system	conditions	MIC
C[C@@H](c1ccn(Cc2ccc(C(F)(F)F)cc2)n1)[C@](O)(Cn1cnnn1)c1ccc(F)cc1F	Cryptococcus neoformans	growth, broth microdilution	H99	72 h, 30 °C, ≥50% inhibition	< 0.008 µg/mL
O=[N+]([O-])c1cccc(S(=O)(=O)NC[C@@H](O)[C@@H]2CCc3cc(F)ccc3O2)c1	Bacillus	microbial growth			14.3 µg/mL
CC[C@@H](C)[C@@H](NC(=O)[C@@H](C)N)C(=O)N[C@H](CCCCN)C(=O)N[C@@H](C(=O)N[C@H](CCCNC(=N)N)C(=O)N[C@H](CCCCN)C(=O)N[C@H](CC(C)C)C(=O)N[C@H](Cc1ccccc1)C(=O)N[C@H](CCCCN)C(=O)N[C@H](CCCCN)C(=O)N[C@H](CC(C)C)C(=O)N[C@H](CC(C)C)C(=O)N[C@H](CCCNC(=N)N)C(N)=O)[C@H](C)CC	Escherichia coli		ATCC 25922	1 h, 37 °C, dividing cells in LB	12.5 µg/mL
CC[C@@H](C)[C@@H](NC(=O)[C@@H](C)NC(=O)[C@@H](CCCCN)NC(=O)[C@@H](CC(C)C)NC(=O)[C@@H](CC(C)C)NC(=O)[C@H](NC(=O)[C@@H](CCCCN)NC(=O)[C@@H](CC(C)C)NC(=O)[C@@H](C)NC(=O)[C@@H](CCCCN)NC(=O)[C@@H](CCCCN)NC(=O)[C@@H](CCCCN)NC(=O)[C@@H](C)NC(=O)[C@@H](CCCCN)NC(=O)[C@@H](CO)NC(=O)[C@@H](Cc1ccccc1)NC(=O)[C@H](NC(=O)[C@@H](CCCCN)NC(=O)[C@@H](CC(C)C)NC(=O)[C@@H](Cc1ccccc1)NC(=O)[C@@H](CO)NC(=O)[C@@H](CCCCN)NC(=O)[C@@H](Cc1c[nH]c2ccccc12)NC(=O)[C@@H](CCCCN)NC(C)=O)[C@H](C)O)[C@H](C)O)C(=O)N[C@H](CO)C(=O)N[C@H](CCCCN)C(N)=O	Acinetobacter baumannii	broth microdilution	ATCC 17978	24 h, 37 °C	0.7 µM
CCCCn1ccc([C@H](C)[C@](O)(Cn2cnnn2)c2ccc(F)cc2F)n1	Cryptococcus neoformans	growth, broth microdilution	H99	72 h, 30 °C, ≥50% inhibition	0.25 µg/mL
CC(=O)N[C@H](CCCCN)C(=O)N[C@H](CC(C)C)C(=O)N[C@H](CCCCN)C(=O)N[C@H](CO)C(=O)N[C@H](CC(C)C)C(=O)N[C@H](CC(C)C)C(=O)N[C@H](CCCCN)C(=O)N[C@@H](C(=O)N[C@H](CC(C)C)C(=O)N[C@H](CO)C(=O)N[C@H](CCCCN)C(=O)N[C@H](C)C(=O)N[C@H](CCCCN)C(=O)N[C@H](CCCCN)C(=O)N[C@H](CCCCN)C(=O)N[C@H](CC(C)C)C(=O)N[C@H](CC(C)C)C(=O)N[C@H](CCCCN)C(=O)N[C@@H](C(=O)N[C@H](C)C(=O)N[C@H](CC(C)C)C(=O)N[C@H](CCCCN)C(=O)N[C@H](C)C(=O)N[C@H](CC(C)C)C(=O)N[C@H](CO)C(=O)N[C@H](CCCCN)C(N)=O)[C@H](C)O)[C@H](C)O	Acinetobacter baumannii		985, Mueller-Hinton broth	24 h, 37 °C	0.3 µM
C[C@@H](c1ccn(Cc2ccccc2)n1)[C@](O)(Cn1cnnn1)c1ccc(F)cc1F	Cryptococcus neoformans	growth, broth microdilution	H99	72 h, 30 °C, ≥50% inhibition	0.25 µg/mL
CC1(C)S[C@@H]2[C@H](NC(=O)[C@H](NC(=O)C3=C(O)C(c4ccccc4F)NC3=O)c3ccccc3)C(=O)N2[C@H]1C(=O)O (stereo partly shown)	Escherichia coli	broth microdilution	BW25113	18 h, added: clavulanic acid 6 µg/mL	12.5 µg/mL
CO[C@@H](C(N)=O)[C@H](NC(=O)c1ccc(NC(=O)c2ccc([N+](=O)[O-])cc2)cc1)C(=O)Nc1ccc(C(=O)Nc2ccc(C(=O)Nc3ccc(C(=O)O)cc3)c(O)c2OC(C)C)cc1	Proteus mirabilis	microbial growth	DSM4479		32 µg/mL
C[C@@H](c1ccn(Cc2c(F)ccc(F)c2F)n1)[C@](O)(Cn1cnnn1)c1ccc(F)cc1F	Cryptococcus neoformans	growth, broth microdilution	H99	72 h, 30 °C, ≥50% inhibition	0.125 µg/mL
CCC(O)CC#Cc1ccc(-n2nnc(/C(C)=N\NC(=N)N)c2C)cc1 (stereo not shown)	Clostridioides difficile	microbial growth, broth dilution	BAA1870		> 64 µg/mL
Oc1c(Cl)cc(Cl)c2cccnc12	Plesiomonas shigelloides	microbial growth, agar dilution			37.4 µM
C[C@@H]1C(=O)O[C@@H](C)/C=C/C=C\[C@@H](C)[C@@H]2C=C[C@@H]3C[C@@]4(C)O[C@H]4[C@@H](C)[C@H]3[C@@H]2C(=O)C(Cl)(Cl)C1=O	Staphylococcus aureus	microbial growth, broth dilution	NEWMAN		0.0125 µg/mL
CC[C@@H](C)[C@@H](NC(=O)[C@@H](C)NC(=O)[C@@H](CCCCN)NC(=O)[C@@H](CC(C)C)NC(=O)[C@@H](C)NC(=O)[C@H](NC(=O)[C@@H](CCCCN)NC(=O)[C@@H](CC(C)C)NC(=O)[C@H](NC(=O)[C@@H](CCCCN)NC(=O)[C@@H](CCCCN)NC(=O)[C@@H](CCCCN)NC(=O)[C@@H](C)NC(=O)[C@@H](CCCCN)NC(=O)[C@@H](CO)NC(=O)[C@@H](Cc1ccccc1)NC(=O)[C@H](NC(=O)[C@@H](CCCCN)NC(=O)[C@@H](CC(C)C)NC(=O)[C@@H](Cc1ccccc1)NC(=O)[C@@H](CO)NC(=O)[C@@H](CCCCN)NC(=O)[C@@H](Cc1c[nH]c2ccccc12)NC(=O)[C@@H](CCCCN)NC(C)=O)[C@H](C)O)C(C)C)[C@H](C)O)C(=O)N[C@H](CO)C(=O)N[C@H](CCCCN)C(N)=O	Acinetobacter baumannii		964, Mueller-Hinton broth	24 h, 37 °C	1.3 µM
N#Cc1ccc(-c2c[nH]c(CNC(=O)Nc3ncc(Sc4ccccn4)s3)n2)cc1	Clostridioides difficile	broth microdilution	R20291		8 µM
Oc1c(Br)cc(Br)c2nc3c(C(F)(F)F)cc(C(F)(F)F)cc3nc12	Gram-positive bacteria			range over strain panel	0.05 to 0.2 µM
N#Cc1ccc2cccc(O)c2n1	Plesiomonas shigelloides	microbial growth, agar dilution			1500 µM
CC(C)c1ccc(Cn2ccc([C@H](C)[C@](O)(Cn3cnnn3)c3ccc(F)cc3F)n2)cc1	Cryptococcus neoformans	CLSI broth microdilution	H99	72 h	< 0.008 µg/mL
CCCC/C=C/C(=O)N[C@@H](Cc1cc(F)cc(F)c1)C(=O)N[C@@H](COC(=O)[C@@H]1CCCN1C(C)=O)C(=O)OC	Mycobacterium tuberculosis		H37Rv	without verapamil	~23 µM
Oc1c(Br)ccc2cccnc12	Plesiomonas shigelloides	microbial growth, agar dilution			35.7 µM
C/C(=N/NC(=N)N)c1nnn(-c2ccc(C#Cc3ccsc3)cc2)c1C	Clostridioides difficile	microbial growth, broth dilution	BAA1870		32 µg/mL
O=C(NCc1nc(-c2ccc(Br)cc2)c[nH]1)Nc1ncc(Sc2ccccn2)s1	Clostridioides difficile	broth microdilution	R20291		4 µM
Oc1c(Br)cc(Br)c2nc3cc(SC(F)(F)F)ccc3nc12	Gram-positive bacteria			range over strain panel	0.04 to 0.78 µM
Cc1ccc(Cn2ccc([C@H](C)[C@](O)(Cn3cnnn3)c3ccc(F)cc3F)n2)cc1	Cryptococcus neoformans	growth, broth microdilution	H99	72 h, 30 °C, ≥50% inhibition	< 0.008 µg/mL
Cc1c(CN(C)C(=O)/C=C/c2cnc3c(c2)CC(N)C(=O)N3)oc2ccccc12 (stereo not shown)	Escherichia coli		intact outer membrane		4 µg/mL

Some of these lines once more:
Structure (SMILES)	organism	test	system	conditions	MIC
CCCCn1ccc([C@H](C)[C@](O)(Cn2cnnn2)c2ccc(F)cc2F)n1	Cryptococcus neoformans	growth, broth microdilution	H99	72 h, 30 °C, ≥50% inhibition	0.25 µg/mL
